Results of several laboratories.
Compare with care: the assays were run in different laboratories.
Cell line: DU-145

The inhibition of `O=C1Nc2ccccc2/C1=N\Nc1nnc2n1N=C(c1ccc(Cl)cc1)CS2` is reported as 23% (cell growth or viability, SRB; 10 µM).
`CCCC(C)NC(=O)C(Nc1ccccc1C(=O)c1ccccc1)c1cn(C)c2ccccc12` (centres unmarked) has a GI50 of 11000 nM (cell growth or viability, MTT; 72 h).
With `CC(=O)OC[C@H]1O[C@@H](Sc2sc(C(=O)c3ccc(C)cc3)c(N)c2-c2nc3ccccc3s2)[C@H](OC(C)=O)[C@@H](OC(C)=O)[C@@H]1OC(C)=O` the growth was 42.1% (SRB; 10 µM, 48 h; reference: untreated).
For `COc1cc(CNC(=O)C[C@H](C)CCC=C(C)C)ccc1OCc1cn(-c2cccc(Cl)c2)nn1`, the growth percent was 86.6% (SRB; 10 µM, 48 h).
For `C[N+]1(CC(=O)OC2CCCCCCCCCCC2)CCCCC1`, the ED20 was 2300 nM (cell viability, CellTiter Blue; 96 h).
`CC(=O)OC[C@H]1O[C@@H](Sc2sc(C(=O)c3ccc(Br)cc3)c(N)c2-c2nc3ccccc3s2)[C@H](OC(C)=O)[C@@H](OC(C)=O)[C@@H]1OC(C)=O` gave a growth of 106% (SRB; 10 µM, 48 h; reference: untreated).
`CCC(=C(c1ccc(Cl)cc1)c1ccc(OCCCN(C)C)cc1)c1ccc(OC)cc1` has a GI50 of 3480 nM (cell growth or viability).
With `COc1ccc2c(c1)/C(=N\Nc1nnc3n1N=C(c1ccccc1)CS3)C(=O)N2` the inhibition was 50% (cell growth or viability, SRB; 10 µM).
`COc1cc(CNC(=O)C[C@H](C)CCC=C(C)C)ccc1OCc1cn(-c2ccc(F)cc2)nn1` gave a growth percent of 93.1% (SRB; 10 µM, 48 h).
`CC/C=C\C/C=C\C/C=C\C/C=C\C/C=C\C/C=C\CCC(=O)Nc1ccn(C2OC(CO)C(O)C2(F)F)c(=O)n1` (centres unmarked) gave a GI50 of 39.6 nM (cell growth or viability, SRB).
`COc1cc(CNC(=O)C[C@H](C)CCC=C(C)C)ccc1OCc1cn(-c2ccc(C#N)cc2)nn1` gave a growth percent of 73.7% (SRB; 10 µM, 48 h).
For `CC(=O)c1cccc(NC2C(N)C(NC(=O)N(C)C)(C(C)O)C(O)C2(O)COC(=O)c2c(C)cccc2O)c1` (centres unmarked), the GI50 was 150 nM (cell growth or viability, SRB).
For `CC(=C(c1ccc(O)cc1)c1ccc(Cl)cc1)c1ccc(Cl)cc1`, the GI50 was 1100 nM (cell growth or viability).
With `COc1cc(CNC(=O)C[C@H](C)CCC=C(C)C)ccc1OCc1cn(-c2ccc(Cl)c(Cl)c2)nn1` the growth percent was 76.8% (SRB; 10 µM, 48 h).

Some of these lines once more:
With `COc1ccc2c(c1)/C(=N\Nc1nnc3n1N=C(c1ccccc1)CS3)C(=O)N2` the inhibition was 50% (cell growth or viability, SRB; 10 µM).
